Assay results pooled from the literature.
Every numbered part comes from another study and shows a few of its results, in no order.

Set 1
Target: Prothrombin, mature alpha-thrombin (F2, Homo sapiens, UniProt P00734)
Method: aptamer microarray, sandwich
Form: DNA with 2'F-ANA
Medium: in vitro
Concentration: 200 nM
Notes: whole 15-mer aptamer, many near background
Added: Cy3 exosite-II aptamer, 400 nM
Reading: higher = stronger binding
Oligonucleotide: GGTTGGTGTGGTTGG
`2'F-ANA at 1 3 8 10 12 13`: “mean fluorescence intensity” 111 a.u.
`2'F-ANA at 3 7 9 10 11 14` — result for “mean fluorescence intensity”: 368 a.u.
For `2'F-ANA at 1 3 4 8 9 10 11 12 13 15`, “mean fluorescence intensity” read 69.9 a.u.
Under “mean fluorescence intensity”, `2'F-ANA at 1 2 3 4 7 10 11 14` is recorded as 49 a.u.
Under “mean fluorescence intensity”, `2'F-ANA at 2 9 10 14 15` is recorded as 87.1 a.u.
For `2'F-ANA at 2 3 4 5 9 10 12 15`, “mean fluorescence intensity” read 60.4 a.u.
Under “mean fluorescence intensity”, `2'F-ANA at 2 3 5 6 7 8 9 10 11 12 13` is recorded as 56.6 a.u.
`2'F-ANA at 1 2 3 11 13 14 15`: “mean fluorescence intensity” 65 a.u.
Under “mean fluorescence intensity”, `2'F-ANA at 2 6 7 8 9 12 15` is recorded as 674 a.u.
Under “mean fluorescence intensity”, `2'F-ANA at 1 2 6 8 9 10 12` is recorded as 64.9 a.u.
For `2'F-ANA at 1 2 3 4 6 7 14 15`, “mean fluorescence intensity” read 63.4 a.u.
For `2'F-ANA at 1 2 3 4 5 7 11 12 14`, “mean fluorescence intensity” read 47.2 a.u.
`2'F-ANA at 2 5 6 7 8 9 10 11 12`: “mean fluorescence intensity” 65.6 a.u.
`2'F-ANA at 3 5 6 7 8 9 10 11 12 14 15` — result for “mean fluorescence intensity”: 56.3 a.u.
`2'F-ANA at 2 3 4 6 7 8 9 10 11 14`: “mean fluorescence intensity” 154 a.u.
`2'F-ANA at 2 3 4 5 6 8 10 15` — result for “mean fluorescence intensity”: 55.4 a.u.
`2'F-ANA at 1 2 4 6 7 9 10 12 13 15` — result for “mean fluorescence intensity”: 57.2 a.u.
For `2'F-ANA at 1 3 5 6 7 8`, “mean fluorescence intensity” read 68.7 a.u.
Under “mean fluorescence intensity”, `2'F-ANA at 4 8 10 12 14 15` is recorded as 56.9 a.u.
`2'F-ANA at 3 6 13 15` — result for “mean fluorescence intensity”: 827 a.u.
`2'F-ANA at 5 8 11 14 15`: “mean fluorescence intensity” 49.8 a.u.
Under “mean fluorescence intensity”, `2'F-ANA at 3 4 5 10 11 13` is recorded as 50.6 a.u.
Under “mean fluorescence intensity”, `2'F-ANA at 5 8 9 10 11 15` is recorded as 49.8 a.u.
For `2'F-ANA at 4 7 13 15`, “mean fluorescence intensity” read 222 a.u.
For `2'F-ANA at 2 3 5 6 13 15`, “mean fluorescence intensity” read 65.5 a.u.

Set 2
Target: Histone acetyltransferase KAT6A, both winged helices, GST fusion (KAT6A, Homo sapiens, UniProt Q92794, residues 1-181)
Method: protein binding microarray
Form: double-stranded DNA, one strand shown
Medium: in vitro
Concentration: not given
Notes: 8-mer, flanks averaged, mean of 2 arrays, mostly near background
Reference: not given
Reading: higher = stronger binding
Construct (chain): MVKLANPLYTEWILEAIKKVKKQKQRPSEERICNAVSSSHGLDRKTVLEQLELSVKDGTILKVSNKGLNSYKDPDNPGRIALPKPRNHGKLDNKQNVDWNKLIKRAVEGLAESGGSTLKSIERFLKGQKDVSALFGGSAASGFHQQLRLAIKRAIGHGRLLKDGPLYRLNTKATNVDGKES
`CTTCCCAA` has an E-score of -0.208.
For `ATCTTAAG`, the E-score was -0.128.
With `CAAATTCG` the E-score was -0.0706.
For `TCCTGGAA`, the E-score was -0.217.
With `CAGTACCG` the E-score was 0.203.
For `ATAAGCCC`, the E-score was -0.01.
`ATGGAGTC` gave an E-score of -0.0892.
For `AAGCGTAC`, the E-score was 0.0864.
The E-score of `ACCTTCTA` is reported as -0.152.
For `CGACGGTC`, the E-score was 0.224.
With `CCGGACTA` the E-score was 0.149.
`AGCGTCTG` gave an E-score of 0.182.
`ATCCTCAA` gave an E-score of -0.12.
`AGGCCTGC` gave an E-score of 0.0306.
With `ACTTTAAC` the E-score was -0.223.
`ACTCTTGC` gave an E-score of -0.172.
The E-score of `ACTCGTGG` is reported as -0.108.
With `ATCGAGAT` the E-score was -0.116.
With `CATAAATA` the E-score was -0.0899.
`CGTGAAAG` gave an E-score of 0.015.

Set 3
Target: Centromere-binding protein 1, full length, His-tagged (CBF1, Saccharomyces cerevisiae, UniProt P17106, residues 1-351)
UniProt P17106, sequence (whole entry, looked up): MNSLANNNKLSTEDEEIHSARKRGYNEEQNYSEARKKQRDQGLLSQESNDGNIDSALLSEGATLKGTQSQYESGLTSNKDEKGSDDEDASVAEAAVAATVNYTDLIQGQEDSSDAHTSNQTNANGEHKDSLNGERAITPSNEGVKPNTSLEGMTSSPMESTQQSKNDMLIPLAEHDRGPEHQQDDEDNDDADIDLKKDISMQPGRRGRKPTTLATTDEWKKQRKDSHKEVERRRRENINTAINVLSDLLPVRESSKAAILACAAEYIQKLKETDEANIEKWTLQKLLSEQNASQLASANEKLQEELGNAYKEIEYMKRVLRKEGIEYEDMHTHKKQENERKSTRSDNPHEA
Method: competition protein-binding microarray
Form: double-stranded DNA, one strand shown
Medium: in vitro
Concentration: 2 µM
Notes: whole 60-bp probe, lowest competitor level
Added: Pho4 competitor, 0.05 µM
Reading: higher = stronger binding
The fluorescence intensity of `CATCTGCCATTCAACAACGTGCCAGCAGGCCTATTAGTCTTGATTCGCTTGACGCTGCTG` is reported as 117 a.u.
`ACTCCCGGTTATCTAGACGTGTTGATCTTGGACACTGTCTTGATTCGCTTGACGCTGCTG` gave a fluorescence intensity of 76.7 a.u.
With `CTTCTGTAAATTTTTCACGTGAATTGACGCGCCCCGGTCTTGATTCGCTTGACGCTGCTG` the fluorescence intensity was 649 a.u.
`CGTCCTAGTGATTGGTCTGTGGGTGCCATGAGGAAGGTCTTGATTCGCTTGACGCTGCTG` gave a fluorescence intensity of 85.7 a.u.
With `GTCTTGTCTCATTGATATGTGGGTGTCCCCACTTCAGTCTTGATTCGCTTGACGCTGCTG` the fluorescence intensity was 87.3 a.u.
The fluorescence intensity of `TTGGTAGAATCTTTGCATGTGTGAGGTATGAATATTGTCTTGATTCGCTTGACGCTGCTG` is reported as 98.3 a.u.
`GTAACTTTACCGTCCCACGTGTCCAAAGGTACGCTGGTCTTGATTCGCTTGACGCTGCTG` has a fluorescence intensity of 1330 a.u.
`CCAAAAAGCCTCCGTCACGTGGTCGCTTGCGCTTATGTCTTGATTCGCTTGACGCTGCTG` has a fluorescence intensity of 4250 a.u.
For `TCTTGGAATTGCGACCACGTGCAAACCTACGTCTGCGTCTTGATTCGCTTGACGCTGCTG`, the fluorescence intensity was 3280 a.u.
The fluorescence intensity of `AAGGCCTGGTCAACCATCGTGTAGGCGTCAAGCTTAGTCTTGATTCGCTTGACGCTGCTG` is reported as 51.6 a.u.
For `GAATTTACTAACGAACTCGTGTTCCGGACCGCTGGCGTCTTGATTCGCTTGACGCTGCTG`, the fluorescence intensity was 96.4 a.u.
For `AAATTACTAAGTTGATTTGTGGGTGACGCCGTATGAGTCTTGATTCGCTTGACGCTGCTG`, the fluorescence intensity was 71.7 a.u.
With `GGGTTGAACGACCGTCACATGTGTGCGGATGTAGTTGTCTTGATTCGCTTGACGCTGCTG` the fluorescence intensity was 400 a.u.
With `GAAACTCCAAGACGGTACGTGAGATTTTGGAGAAGAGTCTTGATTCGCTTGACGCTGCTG` the fluorescence intensity was 65.4 a.u.
For `CATACCCAACCTTGTAGAGTGGGTGAAGATATTTGTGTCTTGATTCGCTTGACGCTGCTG`, the fluorescence intensity was 89.7 a.u.
The fluorescence intensity of `GTCTTGTCTCATTTTCACGTGCGTTTCCCCACTTCAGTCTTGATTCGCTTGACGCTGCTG` is reported as 780 a.u.

Set 4
Target: Ras GTPase-activating protein-binding protein 1, full length (G3BP1, Homo sapiens, UniProt Q13283)
UniProt Q13283, sequence (whole entry, looked up): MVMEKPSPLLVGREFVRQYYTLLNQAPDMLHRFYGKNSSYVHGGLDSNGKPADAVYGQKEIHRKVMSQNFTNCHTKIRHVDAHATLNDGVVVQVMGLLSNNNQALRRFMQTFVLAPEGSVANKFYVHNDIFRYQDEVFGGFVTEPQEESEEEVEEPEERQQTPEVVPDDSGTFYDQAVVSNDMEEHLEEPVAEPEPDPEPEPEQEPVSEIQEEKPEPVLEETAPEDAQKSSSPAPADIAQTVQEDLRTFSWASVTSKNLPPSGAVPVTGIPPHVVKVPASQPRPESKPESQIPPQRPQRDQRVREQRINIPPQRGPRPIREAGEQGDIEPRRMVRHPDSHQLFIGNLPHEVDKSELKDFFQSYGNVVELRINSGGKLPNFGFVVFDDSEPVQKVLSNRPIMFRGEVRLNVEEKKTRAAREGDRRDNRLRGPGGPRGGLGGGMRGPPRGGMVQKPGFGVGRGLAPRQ
Method: RNA Bind-n-Seq
Form: RNA
Medium: in vitro
Concentration: 200 nM
Notes: whole 134-nt RNA, ends assumed
Added: 150 mM LiCl
Reference: input library
Reading: higher = stronger binding
Each molecule: 7-deaza-guanosine replaces G
For `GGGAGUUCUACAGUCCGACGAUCCACAGACAACACGCACCCACACAGACACAGAGGGAAGGGGUUGGAAAGGGGACAGGGUGCACAGCAGGGCGGGGUAGGACCCCAGCCCCUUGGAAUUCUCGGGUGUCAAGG`, the log2 enrichment was -0.408.
The log2 enrichment of `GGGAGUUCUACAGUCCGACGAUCUUUGCAGGAUUAAUCACUCCUGAAGAUCGGAAAUAUGGAACAACAAAUCUUCACUUAGAUGUAUCUGAUGCAGCUAAUGUCAUGGUCUAUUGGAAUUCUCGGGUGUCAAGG` is reported as -1.86.
With `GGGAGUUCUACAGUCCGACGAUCAGUCCUGUGCUACACAUCGUAUGUACCGAAUCGGGCCCCCGGGGCCCCCGGCCCCCGGAAAGUAUUAUGUUACGCCGUUCGGAUCUGCACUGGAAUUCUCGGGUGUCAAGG` the log2 enrichment was -1.4.
The log2 enrichment of `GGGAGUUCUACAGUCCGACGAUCGUCCUGUGCUACACAUCGUAUGUACCGAAUCGGGGAAAGGGGAAAAAAAGGGGAGGGGAAAGUAUUAUGUUACGCCGUUCGGAUCUGCACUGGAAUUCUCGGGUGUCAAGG` is reported as 0.56.
`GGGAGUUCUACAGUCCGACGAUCUUGUCUUCUGAGAUGUUGGGCCCCUCUUGGGAUGGAGAUGAAGCAGAAUCCACUGGUGAAAUCAUUAGACUUGGAGACACAGCACACACCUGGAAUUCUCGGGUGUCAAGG` gave a log2 enrichment of 0.146.
For `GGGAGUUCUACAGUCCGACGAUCUUGAAAGAAUUUGCCAACUUUGACUUUGAUGUCUGGAGGAAAAAGUAUAUGCGUUGGAUGAAUCACAAAAAGUCUCGAGUGAUGGAUUUCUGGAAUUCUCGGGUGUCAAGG`, the log2 enrichment was -3.11.
For `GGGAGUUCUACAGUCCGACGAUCUGGGAGGUGGAUUUUGUUUAUUUUUUUAGCUCAUUUCCAGGGGUGGGAAUUUAUUUUUAAUAUGUGUCAUGAAUAAAGUUGUUUUUGAAAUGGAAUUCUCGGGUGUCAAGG`, the log2 enrichment was -0.431.
The log2 enrichment of `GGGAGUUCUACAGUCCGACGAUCGCAGGAAGUAAAGACAAAUGGAAAUGCUUCGGAUAGUGGCAGGGGUGGGGGUUGCUAAGGAAAGGGUGGGAUGGGAGUGGGUAAAGAGUUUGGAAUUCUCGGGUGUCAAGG` is reported as -0.35.
The log2 enrichment of `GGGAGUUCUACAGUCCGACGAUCCCUGUGCUACACAUCGUAUGUACCGAAUCGGGUUUUUUGGGGUUUUUUGGGUUUUUUGGGGAAAGUAUUAUGUUACGCCGUUCGGAUCUGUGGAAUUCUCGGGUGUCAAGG` is reported as 0.0218.
With `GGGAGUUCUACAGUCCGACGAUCACCAUGCAGGAAAGCAUCUUUGGGAAGUGGGGCAAGGGGGGGAUAGGGAGGGGGGUAACACUUUGGGAACAGGUGGUCCCAGGUCGUUUCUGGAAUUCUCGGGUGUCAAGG` the log2 enrichment was 0.035.
`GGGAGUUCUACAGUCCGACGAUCAAGUCCUGUGCUACACAUCGUAUGUACCGAAUCGGGUUUUGGUUUUGGGGUUUUGGGAAAGUAUUAUGUUACGCCGUUCGGAUCUGCACUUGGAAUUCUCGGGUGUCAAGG` gave a log2 enrichment of -0.0331.

Set 5
Target: Sal-like protein 4, full length isoform B (SALL4, Homo sapiens, UniProt Q9UJQ4-2, residues 1-616)
Method: universal PBM
Form: double-stranded DNA, one strand shown
Medium: in vitro
Concentration: not given
Notes: 8-mer, flanks averaged, mean of replicates
Reading: higher = stronger binding
The E-score of `ATAATCGG` is reported as 0.176.
With `ACGCCTGA` the E-score was 0.0416.
`AATCGTTA` has an E-score of 0.189.
The E-score of `TCAGGGGA` is reported as -0.0824.
For `AAATTGAA`, the E-score was 0.299.
`CACGCAGA` has an E-score of 0.0278.
`ACCAGAAC` gave an E-score of -0.142.
The E-score of `ATAAATGG` is reported as 0.293.
`GATTCTGC` has an E-score of -0.0576.
`GCAATACC` has an E-score of 0.0229.
For `ACTTTGTA`, the E-score was 0.225.
`AGGTTGTA` gave an E-score of 0.136.
The E-score of `TAAATCCA` is reported as 0.124.
With `AGTTGTTA` the E-score was 0.136.
The E-score of `ATGTGGTC` is reported as -0.0181.
`CCGACTAG` has an E-score of -0.273.
With `AAGGTGTC` the E-score was -0.109.
`ATGGCCCA` has an E-score of -0.0951.
`GCATCAGC` has an E-score of -0.139.
For `CCCGATAG`, the E-score was -0.19.
`CTGTCGCC` has an E-score of -0.299.
For `CGTGCATA`, the E-score was 0.136.
The E-score of `GCAGTTCC` is reported as -0.25.
`GCGAATCA` gave an E-score of -0.0211.

Excerpt of the above (set 2):
For `TCCTGGAA`, the E-score was -0.217.
The E-score of `ACTCGTGG` is reported as -0.108.
For `CGACGGTC`, the E-score was 0.224.
With `CATAAATA` the E-score was -0.0899.
`ATGGAGTC` gave an E-score of -0.0892.
For `AAGCGTAC`, the E-score was 0.0864.
`AGGCCTGC` gave an E-score of 0.0306.
With `CAGTACCG` the E-score was 0.203.
With `ATCGAGAT` the E-score was -0.116.
`CTTCCCAA` has an E-score of -0.208.
